Measurements pooled from the literature.
A part holds a random share of what one study measured. Changes are numbered by the printed parent chain.

Series 1 — technique: protein-binding microarray; molecule type: double-stranded DNA, one strand shown; medium: in vitro; tested at: 250 nM; notes: 60-bp whole probe; together with: salmon DNA 0.4 mg/ml; reference: random background probes; reading: higher = stronger binding; all sequences stand within: GCCTAGCAC … GTCTTGATTCGCTTGACGCTGCTG
Target: Interferon regulatory factor 7, full length, phosphomimetic (IRF7, Homo sapiens, UniProt Q92985, residues 1-503, S101K/S471D/S472D/S475D/S476D/S477D/S483D/S484D/S487D)
Construct (chain): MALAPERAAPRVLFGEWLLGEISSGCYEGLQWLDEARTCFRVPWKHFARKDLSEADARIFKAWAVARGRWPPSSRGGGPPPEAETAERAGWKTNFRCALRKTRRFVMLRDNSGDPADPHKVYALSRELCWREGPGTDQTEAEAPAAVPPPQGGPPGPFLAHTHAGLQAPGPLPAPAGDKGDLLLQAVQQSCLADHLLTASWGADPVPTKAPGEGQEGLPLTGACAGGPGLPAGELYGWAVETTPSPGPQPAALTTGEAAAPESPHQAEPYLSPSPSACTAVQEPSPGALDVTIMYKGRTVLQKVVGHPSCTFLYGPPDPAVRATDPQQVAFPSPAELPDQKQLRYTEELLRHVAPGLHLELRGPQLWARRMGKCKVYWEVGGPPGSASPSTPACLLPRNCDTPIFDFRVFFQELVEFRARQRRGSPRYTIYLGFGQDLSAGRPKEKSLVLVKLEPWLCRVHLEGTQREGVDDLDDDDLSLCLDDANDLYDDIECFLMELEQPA
`TTAGAACTGGTGTTTCGATTAGTGCTA` gave a log fluorescence of 4.52 z-score.
`TGCTTCCTCTTTTTTGTTCCGTGCTAG` gave a log fluorescence of 1.85 z-score.
`TCATCATTGTTTTTCATACTGTGCTAG` gave a log fluorescence of 0.704 z-score.
`GACGGACTGGGTCTCGGGTCGTGCTAG` gave a log fluorescence of 0.806 z-score.
The log fluorescence of `TTAGAACTGAGTCTCGATTAGTGCTAG` is reported as 1.28 z-score.
`TTAGGTCTCCTAGTGCTTTAGTGCTAG` gave a log fluorescence of -0.224 z-score.
`GACGATATCGGGACTGGATACGTGCTA` gave a log fluorescence of 0.0804 z-score.
For `TTAGGTCGCCTTCTCCTTTAGTGCTAG`, the log fluorescence was -0.0303 z-score.
`TTAGAACTGAGTACCGATTAGTGCTAG` gave a log fluorescence of 0.256 z-score.
`TCAGGTATGGCCTATTTAACTGTGCTA` gave a log fluorescence of -0.681 z-score.
`TTAGATTTCAGTATCGATTCGTGCTAG` has a log fluorescence of 3.11 z-score.
`TTAGATTTCAGTCTCGACTAGTGCTAG` has a log fluorescence of 0.86 z-score.
The log fluorescence of `TTAGGACTGCTACGGCTTTAGTGCTAG` is reported as -0.564 z-score.
With `GACGATATCGGGTACCGAGACGTGCTA` the log fluorescence was -0.283 z-score.
`GACGGTATCGATTATCGGGACGTGCTA` gave a log fluorescence of 0.938 z-score.
`TTAGGTATCGACACTGGGTCAGTGCTA` gave a log fluorescence of -0.149 z-score.
For `TTAGACTTCAGTTTCGATTAGTGCTAG`, the log fluorescence was 8.56 z-score.
With `GACGGACTTGGGTATCGGGACGTGCTA` the log fluorescence was -0.0635 z-score.
With `AGAGCTAAGTGAGTGTCATCGTGCTAG` the log fluorescence was -0.974 z-score.
With `GACGATTTCAGGATCGAGACGTGCTAG` the log fluorescence was 0.367 z-score.
The log fluorescence of `TTAGGTTTCGGGACAGGGTTAGTGCTA` is reported as 4.83 z-score.

Series 2 — technique: RNA Bind-n-Seq; molecule type: RNA; medium: in vitro; tested at: 365 nM; reference: no-protein control; reading: higher = stronger binding
Target: RNA binding protein fox-1 homolog 2, RRM domain, GST-SBP tag (RBFOX2, Homo sapiens, UniProt O43251-10, residues 100-194)
Notes: natural RNA segment, single round, ends assumed
Target sequence (chain): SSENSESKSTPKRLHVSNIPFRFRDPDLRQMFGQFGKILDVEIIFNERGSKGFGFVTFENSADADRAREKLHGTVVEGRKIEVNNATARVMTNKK
`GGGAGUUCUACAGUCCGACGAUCUCAGUGGUAGAGUGCUUGCCUGAUAUACAGGAAGCCUCAGUUUAAUCCUAAAUCCCAUUUCAAAAAUAUACUUAUCAUUGGAAUUUAUCUCCCAUUUUAACCACUUUUAGUGGAAUUCUCGGGUGCCAA` — result for “RBNS enrichment (R)”: 0.5.
For `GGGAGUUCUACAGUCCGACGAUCUCCAGUGUCAAACACCGCCCAGGCUUUCCAGCUGACCUCUGUUAUCUUGAGAGCUGAGGCUAGGUCCUCCCAGCUACUGUUAGGCAUUGAGGUACUAAAACUGCAGGUGGUGGAAUUCUCGGGUGCCAA`, “RBNS enrichment (R)” read 0.313.
Under “RBNS enrichment (R)”, `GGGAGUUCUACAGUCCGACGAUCUAGAAAGUUAACCCUAUUAAUUUCAGUAUCAAACAUUGUUACAGUCAAAGACAAGGAAGACCAAACCACACACUGUAAAAGUCCACUGCUCUGUAGUUUAUGCCAAGACCUGGAAUUCUCGGGUGCCAA` is recorded as 0.362.
`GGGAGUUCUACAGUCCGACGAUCUCUUCAGGAGUGUGCUUAUGUCUGUAAAUUGCUGGAGAGGGGGUAGAUGGGCCAGGACAACCAGCAAGACACCUGUUGGGAAGCACCGGGUAUAGAAUCAUAUUUGGUGUUGGAAUUCUCGGGUGCCAA`: “RBNS enrichment (R)” 0.706.
For `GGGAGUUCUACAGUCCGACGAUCCCCUUCCUCAGGCUCCCCCGGCCCACCCUGCUCAGUGACCCCACAGGAAGCUUACACAUUUUCUCAGAGGCCUUUGUGCUCCCACCUCUUCUACCCUCCCCCUCUUCUUUUGGAAUUCUCGGGUGCCAA`, “RBNS enrichment (R)” read 0.894.
Under “RBNS enrichment (R)”, `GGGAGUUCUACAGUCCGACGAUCCUUCAUAGCUCCGCCCCAGUUGUGGCAGGAGACAUUCGAACAGACGUUUAGACGUUUAGAGUCCUCUUGGAAAAUAGGGCCGUGCGGGAACGGUUAUGAUUGCCAGCGUUUGGAAUUCUCGGGUGCCAA` is recorded as 0.603.
`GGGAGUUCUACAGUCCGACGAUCGAUGUUCAGUGGUCGUUUUUCAUUUUAAGUAAUUUUUGUUUUGGCAUUUUUUUGUGUGAAGUAAAUUAAUCAACUAGAGAGGUGCAAAACGUUCUCAGUUGAUAUCUGAGUGGAAUUCUCGGGUGCCAA` — result for “RBNS enrichment (R)”: 0.859.
`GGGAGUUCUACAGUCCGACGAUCACUCAUCAGAGUGCGGAUUGCCAAGACCCUUCUCCAGAGAUUAUGGGGUUGGGGGUGGAGGUCUAGAGGUGAGCUCAGAAACCUACUGUUAACCAACACCCCCAAGUGACUGGAAUUCUCGGGUGCCAA`: “RBNS enrichment (R)” 0.238.
`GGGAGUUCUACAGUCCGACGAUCAAGCAGAAACUCUGAAGAAAAGGAUUAUUUAAAGGACUCUAUGGGGAGAAAGAGAAGGCAACUCCUCCUUACCCCCCACACUGGUAAUCUUUCCAACCAGCAUCCCAGACUGGAAUUCUCGGGUGCCAA` — result for “RBNS enrichment (R)”: 0.264.
`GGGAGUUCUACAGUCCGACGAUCACCUACCCCACAGCAGGUAGCCCAGCAGCAGUGAAGAUGCAGACUGAUACCACCUCCACCGCUGAGCAGUGACCUUCCUCACUUUCUCUUGUCCCAGCUUCUCCCCUGGGUGGAAUUCUCGGGUGCCAA` — result for “RBNS enrichment (R)”: 0.387.
`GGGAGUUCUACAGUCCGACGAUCUUUGUCAACAUGAUGGUAAAAAGGAAAGAAAUCUGUUACAAAGACAAAUUAGAGGGAAAUUUGUCCUGUUAACCACAUGCUAUUAUUCCUUCAUUCAGGGUUACUGACCUUGGAAUUCUCGGGUGCCAA`: “RBNS enrichment (R)” 0.6.
Under “RBNS enrichment (R)”, `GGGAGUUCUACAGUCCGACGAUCCAGUGUGACGAAAGGCGGCCUGUACUGCCCUAAGAAAUCUGAUGUAAAGUUUUUGUAUAUUUCAUAUUCCACCCACCAGAUUCUGCUUCCAUUUAAUAAAACCCUUUUUGUGGAAUUCUCGGGUGCCAA` is recorded as 0.756.

Series 3 — target: CCND3, cyclin fold, Cln2 fusion (human); technique: yeast growth competition, sequencing; medium: yeast; notes: weak parent motif; reference: not given; reading: higher = stronger binding
Parent: CDC25A docking peptide (human); PPHRRRLLFACSP
`PPHRRRLLFHCSP [A10H]` — result for “normalised enrichment score”: 0.108.
Under “normalised enrichment score”, `PPHRRRLLCACSP [F9C]` is recorded as 0.0921.
Under “normalised enrichment score”, `PPHRGRLLFACSP [R5G]` is recorded as 0.124.
`PPHRRRMLFACSP [L7M]`: “normalised enrichment score” 0.115.
For `PPHRRRLLHACSP [F9H]`, “normalised enrichment score” read 0.121.
For `PPHRRRTLFACSP [L7T]`, “normalised enrichment score” read 0.217.
For `PPHRRILLFACSP [R6I]`, “normalised enrichment score” read 0.105.
`PLHRRRLLFACSP [P2L]` — result for “normalised enrichment score”: 0.0499.
Under “normalised enrichment score”, `VPHRRRLLFACSP [P1V]` is recorded as 0.0961.
Under “normalised enrichment score”, `PPHRRRLLFACSE [P13E]` is recorded as 0.158.
`PPQRRRLLFACSP [H3Q]` — result for “normalised enrichment score”: 0.111.
`LPHRRRLLFACSP [P1L]` — result for “normalised enrichment score”: 0.058.
Under “normalised enrichment score”, `PPHRRRKLFACSP [L7K]` is recorded as 0.125.
`PRHRRRLLFACSP [P2R]` — result for “normalised enrichment score”: 0.212.
Under “normalised enrichment score”, `PPHDRRLLFACSP [R4D]` is recorded as 0.117.
`PPHRRRLLFACLP [S12L]`: “normalised enrichment score” 0.171.
For `PPHRRRLLFRCSP [A10R]`, “normalised enrichment score” read 0.15.
`PPHRQRLLFACSP [R5Q]` — result for “normalised enrichment score”: 0.179.

Series 4 — technique: protein-binding microarray; molecule type: double-stranded DNA, one strand shown; medium: in vitro; tested at: not given; reading: higher = stronger binding
Target: Microphthalmia-associated transcription factor, full length (MITF, Homo sapiens, UniProt O75030-10, residues 1-413)
Notes: k-mer, scored over probes, only values ≥0.25
Residues (chain): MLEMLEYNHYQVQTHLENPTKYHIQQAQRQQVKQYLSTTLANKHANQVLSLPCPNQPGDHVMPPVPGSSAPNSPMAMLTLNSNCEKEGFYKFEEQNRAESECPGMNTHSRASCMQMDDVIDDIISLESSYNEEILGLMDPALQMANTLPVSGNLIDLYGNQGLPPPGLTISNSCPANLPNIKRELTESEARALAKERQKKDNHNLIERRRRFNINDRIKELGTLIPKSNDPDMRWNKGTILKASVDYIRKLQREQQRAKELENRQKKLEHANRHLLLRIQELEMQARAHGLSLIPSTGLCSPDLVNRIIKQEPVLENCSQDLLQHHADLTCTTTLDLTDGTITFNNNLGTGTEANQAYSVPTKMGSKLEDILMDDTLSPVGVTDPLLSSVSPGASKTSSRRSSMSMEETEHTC
With `AGGCACG` the E-score was 0.274.
For `AGTCATC`, the E-score was 0.251.
For `ACACGGG`, the E-score was 0.253.
`ACGTGAT` has an E-score of 0.455.
`CGTGATC` gave an E-score of 0.448.
With `CACGTTA` the E-score was 0.298.
`GATCATA` gave an E-score of 0.287.
`ACGGGAT` gave an E-score of 0.312.
For `ACGGGGC`, the E-score was 0.278.
For `AATCACG`, the E-score was 0.435.
The E-score of `CATCATG` is reported as 0.347.
`CAGTCAC` gave an E-score of 0.308.
With `AAACACG` the E-score was 0.259.
For `CAAGTCA`, the E-score was 0.25.
`ACATGAG` has an E-score of 0.286.
With `CATGACA` the E-score was 0.394.
The E-score of `CGTGTGA` is reported as 0.425.

A few entries again (series 1):
For `TTAGGTCGCCTTCTCCTTTAGTGCTAG`, the log fluorescence was -0.0303 z-score.
`TTAGAACTGAGTACCGATTAGTGCTAG` gave a log fluorescence of 0.256 z-score.
`TCAGGTATGGCCTATTTAACTGTGCTA` gave a log fluorescence of -0.681 z-score.
`TTAGATTTCAGTATCGATTCGTGCTAG` has a log fluorescence of 3.11 z-score.
`TTAGATTTCAGTCTCGACTAGTGCTAG` has a log fluorescence of 0.86 z-score.
The log fluorescence of `TTAGGACTGCTACGGCTTTAGTGCTAG` is reported as -0.564 z-score.
With `GACGATATCGGGTACCGAGACGTGCTA` the log fluorescence was -0.283 z-score.
`GACGGTATCGATTATCGGGACGTGCTA` gave a log fluorescence of 0.938 z-score.
`TTAGGTATCGACACTGGGTCAGTGCTA` gave a log fluorescence of -0.149 z-score.
For `TTAGACTTCAGTTTCGATTAGTGCTAG`, the log fluorescence was 8.56 z-score.
With `GACGGACTTGGGTATCGGGACGTGCTA` the log fluorescence was -0.0635 z-score.
